Measured values from different studies.
Protocols differ between the studies behind these lines. Numbers after ± are the reported error.
Cell line: Caco-2

C(#Cc1cncc(OC[C@@H]2CCN2)c1)c1ccccc1 — Papp A to B (Caco-2 permeability; 100 µM, 2 h, pH 7.4, with: MK-571 100 µM): 23 ± 0.27 ×10⁻⁶ cm/s
C#CCCCOP(=O)(O)Oc1c2c(c(OP(=O)(O)OCCCC#C)c3c1C1CC3c3cc4c(cc31)C1CC4c3ccccc31)C1CC2c2cc3c(cc21)C1CC3c2ccccc21 — CC50 (CellTiter-Glo; 2 days): > 300 µM
CC(C)C[C@H](NC(=O)CNC(=O)[C@@H](N)Cc1c[nH]c2ccccc12)C(=O)N1CCC[C@H]1C(=O)O — viability (MTT; 0.5 and 1 mM, 4 h): > 100%
CCCCn1cc(C(=O)O)c(=O)c2cc(F)c(Nc3ccccc3Cl)c(N)c21 — IC50 (cell growth, SRB; 72 h): 107 ± 5.74 µg/mL
CCCCC[C@@H]1OC(=O)[C@@H](C)N(C)C(=O)[C@H](CCCCC)OC(=O)[C@@H](C)N(C)C(=O)[C@H](CCCCC)OC(=O)[C@@H](C)N(C)C(=O)[C@H](CCCCC)OC(=O)[C@@H](C)N(C)C1=O — Papp (10 µM, 2 h, pH 7.4): 1 to 10 ×10⁻⁶ cm/s
CC(C)CCOP(=O)(O)Oc1c2c(c(OP(=O)(O)OCCC(C)C)c3c1C1CC3c3cc4c(cc31)C1CC4c3ccccc31)C1CC2c2cc3c(cc21)C1CC3c2ccccc21 — CC50 (CellTiter-Glo; 2 days): 97 µM
C#CCCCNCCNc1ccnc2cc(Cl)ccc12 — CC50: 27.4 ± 1.2 µM
O=C(O)CCOP(=O)(O)Oc1c2c(c(OP(=O)(O)OCCC(=O)O)c3c1C1CC3c3cc4c(cc31)C1CC4c3ccccc31)C1CC2c2cc3c(cc21)C1CC3c2ccccc21 — CC50 (CellTiter-Glo; 2 days): > 300 µM
CN(C)CC1CCCCC1(O)c1cccc(O)c1 (stereo not shown) — efflux increase (concentration not given, 3 h, basolateral-to-apical, apical pH 6.8, with: cyclosporine A 10 µM): ≤ 26%
CCCCn1cc(C(=O)O)c(=O)c2cc(F)c3c(nnn3-c3cccc(Cl)c3)c21 — IC50 (cell growth, SRB; 72 h): 92.5 ± 7.07 µg/mL
C=CC(=O)N1CCCC(Oc2ccc(Cl)cn2)C1 (stereo not shown) — viability (resazurin; 0.25 to 1 mM): > 85%
Nc1nc(Nc2ccc(Cl)cc2)nn1S(=O)(=O)c1ccc2ccccc2c1 — Papp A-B (10 µM, 90 (unit not given), pH 7.4): 0.138 ×10⁻⁶ cm/s
Clc1cc2oc3cc(Cl)c(Cl)c(Cl)c3c2cc1Cl — transport fraction (refers to: basolateral amount; gut-on-a-chip model; 0.2 ng/mL, 24 h, DMSO 1%; reference: total applied amount): 3.3%
CC[C@H](C)[C@H](NC(=O)[C@H](C)NC(=O)[C@H](CCC(=O)O)NC(=O)[C@H](CCC(=O)O)NC(=O)[C@H](CC(C)C)NC(=O)[C@H](CCCCN)NC(=O)[C@H](CCCCN)NC(=O)[C@H](CCSC)NC(=O)[C@H](CCC(=O)O)NC(=O)[C@H](Cc1ccc(O)cc1)NC(=O)[C@H](CCC(=O)O)NC(=O)[C@H](CC(C)C)NC(=O)[C@H](CC(=O)O)NC(=O)[C@H](CC(C)C)NC(=O)[C@H](Cc1ccccc1)NC(=O)[C@@H](NC(=O)[C@@H](NC(=O)[C@@H](N)CC(N)=O)C(C)C)[C@@H](C)O)C(=O)N[C@@H](CCCCN)C(=O)N[C@@H](CCCCN)C(=O)N[C@@H](CC(C)C)C(=O)N[C@@H](CCC(=O)O)C(=O)N[C@@H](CCC(=O)O)C(=O)N[C@@H](CO)C(=O)N[C@@H](Cc1ccc(O)cc1)C(=O)N[C@H](C(=O)N[C@@H](CC(=O)O)C(=O)N[C@@H](CC(C)C)C(=O)N[C@@H](CCCCN)C(=O)N[C@@H](CCC(=O)O)C(=O)N[C@@H](CC(C)C)C(=O)NCC(=O)N[C@H](C(=O)N[C@@H](Cc1ccc(O)cc1)C(=O)N[C@@H](CCC(=O)O)C(=O)N[C@@H](Cc1ccc(O)cc1)C(=O)NCC(=O)N[C@@H](CO)C(=O)NCC(=O)N[C@@H](CSCC(=O)O[C@H]1CC[C@@]2(C)C(=CC[C@H]3[C@@H]4CC[C@H]([C@H](C)CCCC(C)C)[C@@]4(C)CC[C@@H]32)C1)C(N)=O)[C@@H](C)O)[C@@H](C)CC — CC50 (48 h): 13.8 µM
CCCCn1cc(C(=O)O)c(=O)c2cc(F)c(Nc3cccc(Cl)c3)c(N)c21 — IC50 (cell growth, SRB; 72 h): 25.7 ± 2.64 µg/mL
Cc1cc(-c2ccc3ccccc3c2)nnc1NCCN1CCN(C)CC1 — recovery (Caco-2 permeability; time not given, mean of both directions): 65%
CCCCC[C@H]1C(=O)N(C)[C@H](C)C(=O)N(C)[C@@H](CCCCC)C(=O)N(C)[C@H](C)C(=O)N(C)[C@@H](CCCCC)C(=O)N(C)[C@H](C)C(=O)N(C)[C@@H](CCCCC)C(=O)N(C)[C@H](C)C(=O)N1C — efflux ratio (10 µM; reference: B-A over A-B): 0.928
C[N+](C)(C)CCOP(=O)([O-])Oc1c2c(c(OP(=O)([O-])OCC[N+](C)(C)C)c3c1C1CC3c3cc4c(cc31)C1CC4c3ccccc31)C1CC2c2cc3c(cc21)C1CC3c2ccccc21 — CC50 (CellTiter-Glo; 2 days): 296 µM
CCCCn1cc(C(=O)O)c(=O)c2cc(F)c3c(nnn3-c3ccccc3Cl)c21 — IC50 (cell growth, SRB; 72 h): 90.2 ± 2.84 µg/mL
O=P(O)(OCCCc1ccccc1)Oc1c2c(c(OP(=O)(O)OCCCc3ccccc3)c3c1C1CC3c3cc4c(cc31)C1CC4c3ccccc31)C1CC2c2cc3c(cc21)C1CC3c2ccccc21 — CC50 (CellTiter-Glo; 2 days): 83.8 µM
CC(=O)N(CCCc1cn(-c2ccc(CN3CCOCC3)cc2)nn1)CCNc1ccnc2cc(Cl)ccc12 — CC50: 65.2 ± 10.7 µM
CCCCn1cc(C(=O)O)c(=O)c2cc(F)c(Nc3ccccc3Cl)c([N+](=O)[O-])c21 — IC50 (cell growth or viability, SRB): 310 µM
CCCCOP(=O)(O)Oc1c2c(c(OP(=O)(O)OCCCC)c3c1C1CC3c3cc4c(cc31)C1CC4c3ccccc31)C1CC2c2cc3c(cc21)C1CC3c2ccccc21 — CC50 (CellTiter-Glo; 2 days): 152 µM
Clc1c(Cl)c(Cl)c2c(oc3c(Cl)c(Cl)c(Cl)c(Cl)c32)c1Cl — transport fraction (refers to: basolateral amount; gut-on-a-chip model; 0.2 ng/mL, 24 h, DMSO 1%; reference: total applied amount): 0.6%
O=P(O)(OCc1ccccc1)Oc1c2c(c(OP(=O)(O)OCc3ccccc3)c3c1C1CC3c3cc4c(cc31)C1CC4c3ccccc31)C1CC2c2cc3c(cc21)C1CC3c2ccccc21 — CC50 (CellTiter-Glo; 2 days): 122 µM
C=CC(=O)N1CCN(c2ccc(C(N)=O)cn2)CC1 — viability (resazurin; 0.25 to 1 mM): > 85%
O=P(O)(O)Oc1c2c(c(OP(=O)(O)O)c3c1C1CC3c3cc4c(cc31)C1CC4c3ccccc31)C1CC2c2cc3c(cc21)C1CC3c2ccccc21 — CC50 (CellTiter-Glo; 2 days): > 300 µM
CCCCn1cc(C(=O)O)c(=O)c2cc(F)c(Nc3cccc(Cl)c3)c([N+](=O)[O-])c21 — IC50 (cell growth or viability, SRB): 269 µM

A few entries again:
CN(C)CC1CCCCC1(O)c1cccc(O)c1 (stereo not shown) — efflux increase (concentration not given, 3 h, basolateral-to-apical, apical pH 6.8, with: cyclosporine A 10 µM): ≤ 26%
CCCCn1cc(C(=O)O)c(=O)c2cc(F)c3c(nnn3-c3cccc(Cl)c3)c21 — IC50 (cell growth, SRB; 72 h): 92.5 ± 7.07 µg/mL
C=CC(=O)N1CCCC(Oc2ccc(Cl)cn2)C1 (stereo not shown) — viability (resazurin; 0.25 to 1 mM): > 85%
Nc1nc(Nc2ccc(Cl)cc2)nn1S(=O)(=O)c1ccc2ccccc2c1 — Papp A-B (10 µM, 90 (unit not given), pH 7.4): 0.138 ×10⁻⁶ cm/s
